# Earlier results that unrelated publications cite.
# Compare with care: the assays were run in different laboratories. ± gives the spread as reported.
SMILES,target or system,test,setting,measurement,value
O=C(Nc1cccnn1)N1CC(CC=Cc2cncc(Oc3ccc(C(F)(F)F)cn3)n2)C1,FAAH (human),enzyme activity,,IC50,> 100 µM
CCCCCCCCCCCCCCCC(=O)N[C@@H](CCC(=O)NCCCC[C@H](NC(=O)[C@H](C)NC(=O)[C@H](C)NC(=O)[C@H](CCC(N)=O)NC(=O)CNC(=O)[C@H](CCC(=O)O)NC(=O)[C@H](CC(C)C)NC(=O)[C@H](Cc1ccc(O)cc1)NC(=O)[C@H](CO)NC(=O)[C@H](CO)NC(=O)[C@@H](NC(=O)[C@H](CC(=O)O)NC(=O)[C@H](CO)NC(=O)[C@@H](NC(=O)[C@H](Cc1ccccc1)NC(=O)[C@@H](NC(=O)CNC(=O)[C@H](CCC(=O)O)NC(=O)[C@H](C)NC(=O)[C@@H](N)Cc1cnc[nH]1)[C@@H](C)O)[C@@H](C)O)C(C)C)C(=O)N[C@@H](CCC(=O)O)C(=O)N[C@@H](Cc1ccccc1)C(=O)N[C@H](C(=O)N[C@@H](C)C(=O)N[C@@H](Cc1c[nH]c2ccccc12)C(=O)N[C@@H](CC(C)C)C(=O)N[C@H](C(=O)N[C@@H](CCCNC(=N)N)C(=O)NCC(=O)N[C@@H](CCCNC(=N)N)C(=O)NCC(=O)O)C(C)C)[C@@H](C)CC)C(=O)O,,one-compartment population PK model,"fixed, previously estimated",absorption rate constant,0.0704 h⁻¹
CC1=C(C#N)[C@@H](c2ccc3[nH]nc(C)c3c2)C(C#N)=C(c2ccc(Cl)cc2)N1,MET,biochemical,,IC50,11 µM
C#Cc1cccc(Nc2ncnc3cc(OCCOC)c(OCCOC)cc23)c1,A549,,,IC50,13.8 ± 2.73 µM
O=C(Cc1ccccc1)Nc1nnc(N2CC[C@@H]3[C@H]2CN3c2cccnn2)s1,GLS2,enzyme activity,,IC50,> 30 µM
CC12CC3CC(C)(C1)CC(N)(C3)C2,Toxoplasma gondii,parasite growth,"concentration not given, published screen",activity class,inactive
COc1nc2ccc([C@@](O)(c3ccccc3)C3CCN(C(C)=O)CC3)cc2c(Cl)c1Cc1ccc(-n2cccn2)cc1,RORC (human),cellular activity,,IC50,0.03 µM
Cl.NC(N)=NC(=O)c1nc(Cl)c(N)nc1N.O,Toxoplasma gondii,parasite growth,"concentration not given, drug repurposing screen",activity class,inactive
